Measurements from different studies.
± marks the error that the study gave.
Cell line: human red blood cells

SMILES	test	test system	setting	how to read	quantity	value
CC[C@H](C)[C@H](NC(=O)[C@H](CCCCN)NC(=O)[C@H](CS)NC(=O)[C@H](CC(N)=O)NC(=O)[C@H](C)NC(=O)[C@H](CCCNC(=N)N)NC(=O)[C@H](CCCNC(=N)N)NC(=O)[C@H](CC(N)=O)NC(=O)[C@H](CCCNC(=N)N)NC(=O)[C@H](CCCNC(=N)N)NC(=O)[C@H](C)NC(=O)[C@H](CS)NC(=O)[C@H](CO)NC(=O)[C@@H](NC(=O)[C@@H](NC(=O)[C@H](CS)NC(=O)[C@H](CCCCN)NC(=O)[C@@H](N)CCCNC(=N)N)C(C)C)[C@@H](C)CC)C(=O)N[C@@H](CC(C)C)C(=O)N[C@@H](CS)C(=O)N[C@@H](CC(N)=O)C(=O)O			128 µg/mL, 3 h, 37 °C	baseline: Triton X-100	hemolysis	-0.15%
CC(C)C[C@H](N)C(=O)N[C@@H](Cc1c[nH]c2ccccc12)C(=O)NCC(=O)N[C@@H](CCCNC(=N)N)C(=O)N[C@@H](Cc1ccccc1)C(=O)N[C@@H](Cc1ccccc1)C(=O)N[C@@H](CCCNC(=N)N)C(=O)N[C@@H](CCCCN)C(=O)N[C@@H](Cc1ccc(-c2ccccc2)cc1)C(=O)N[C@@H](CCCCN)C(N)=O	haemolysis		1 h, 37 °C		HC10	100 µM
CC[C@H](C)[C@H](NC(=O)[C@H](C)NC(=O)[C@H](CC(N)=O)NC(=O)[C@H](CCCNC(=N)N)NC(=O)[C@H](CCCNC(=N)N)NC(=O)[C@H](CC(N)=O)NC(=O)[C@H](CCCNC(=N)N)NC(=O)[C@H](CCCNC(=N)N)NC(=O)[C@H](C)NC(=O)[C@@H](NC(=O)[C@H](CC(C)C)NC(=O)[C@@H](NC(=O)[C@@H](NC(=O)[C@H](CS)NC(=O)[C@H](CCCCN)NC(=O)[C@@H](N)CCCNC(=N)N)C(C)C)[C@@H](C)CC)C(C)C)C(=O)N[C@H](C(=O)N[C@H](C(=O)N[C@@H](CC(C)C)C(=O)N[C@@H](CS)C(=O)N[C@@H](CCCNC(=N)N)C(=O)O)[C@@H](C)CC)C(C)C			128 µg/mL, 3 h, 37 °C	baseline: Triton X-100	hemolysis	7.52%
C[C@@H](O)[C@H](NC(=O)[C@H](CCCNC(=N)N)NC(=O)[C@H](CCCNC(=N)N)NC(=O)[C@H](CCCNC(=N)N)NC(=O)[C@@H]1CCCN1C(=O)[C@@H](N)CO)C(=O)N1CCC[C@H]1C(=O)N[C@@H](CO)C(=O)N1CCC[C@H]1C(=O)N[C@@H](CCCNC(=N)N)C(=O)N[C@@H](CCCNC(=N)N)C(=O)N[C@@H](CCCNC(=N)N)C(=O)N[C@@H](CCCNC(=N)N)C(=O)N[C@@H](CO)C(=O)N[C@@H](CCC(N)=O)C(=O)N[C@@H](CO)C(=O)N1CCC[C@H]1C(=O)N[C@@H](CCCNC(=N)N)C(=O)N[C@@H](CCCNC(=N)N)C(=O)N[C@@H](CCCNC(=N)N)C(N)=O			100 µM, 24 h, pH 7.4, 37 °C, 0.25% v/v erythrocytes		maximum haemolysis	7.9 ± 0.8%
CC(C)C[C@H](NC(=O)[C@@H]1CSCC(=O)N[C@@H](CCCCN)C(=O)N[C@@H](CC(C)C)C(=O)N[C@@H](CC(C)C)C(=O)NCCCC[C@@H]2NC(=O)[C@H](CC(C)C)NC(=O)[C@H](CC(C)C)NC(=O)[C@H](CCCCN)NC(=O)CSC[C@H](NC(=O)[C@H](CC(C)C)NC(=O)[C@H](CC(C)C)NC(=O)[C@H](CCCCN)NC2=O)C(=O)N[C@@H](CCCCN)C(=O)N[C@@H](CCCCN)C(=O)N[C@@H](CCCCN)C(=O)N1)C(N)=O			4 h, pH 7.4, room temperature		minimal haemolytic concentration	2000 µg/mL
CC[C@H](C)[C@H](NC(=O)[C@H](CCCCN)NC(=O)[C@H](CCCCN)NC(=O)[C@H](Cc1ccccc1)NC(=O)[C@H](CC(C)C)NC(=O)[C@@H](CCCCN)NC(=O)[C@H](Cc1c[nH]c2ccccc12)NC(=O)[C@H](CCCCN)NC(C)=O)C(=O)NCC(=O)N[C@@H](C)C(=O)N[C@H](C(=O)N[C@@H](CC(C)C)C(=O)N[C@@H](CCCCN)C(=O)N[C@H](CCCCN)C(=O)N[C@@H](CC(C)C)C(N)=O)C(C)C			64 µM, 1 h, 37 °C	baseline: Triton X-100	hemolysis	< 6%
CC[C@H](C)[C@H](NC(=O)[C@H](Cc1ccccc1)NC(=O)[C@H](CC(=O)O)NC(=O)[C@H](CCCCN)NC(=O)[C@H](C)NC(=O)[C@H](CCCCN)NC(=O)[C@H](CC(N)=O)NC(=O)[C@H](CC(C)C)NC(=O)[C@H](Cc1c[nH]c2ccccc12)NC(=O)[C@H](CCC(=O)O)NC(=O)[C@H](CCCCN)NC(=O)[C@@H](NC(=O)CNC(=O)[C@H](C)N)[C@@H](C)O)C(=O)N[C@@H](CCCCN)C(=O)N[C@@H](CCC(=O)O)C(=O)N[C@@H](CCCCN)C(=O)NCC(=O)N[C@@H](CC(C)C)C(=O)NCC(=O)N[C@@H](CCSC)C(=O)N[C@@H](CC(C)C)C(=O)N[C@@H](CCCNC(=N)N)C(=O)N[C@@H](C)C(=O)N[C@@H](C)C(=O)N[C@@H](C)C(=O)N[C@@H](CC(N)=O)C(=O)N[C@@H](C)C(=O)N[C@@H](C)C(=O)N[C@@H](CC(C)C)C(=O)N[C@@H](CC(N)=O)C(=O)O			1 h		HC50	> 150 µM
CC[C@H](C)[C@H](NC(=O)[C@H](CCCCN)NC(=O)[C@H](CC(N)=O)NC(=O)[C@H](CC(C)C)NC(=O)[C@H](Cc1ccccc1)NC(=O)[C@H](CCCCN)NC(=O)[C@H](CCCCNC(=N)N)NC(=O)[C@H](CC(C)C)NC(=O)[C@H](CC(C)C)NC(=O)[C@H](CCCCN)NC(=O)[C@H](CCCCNC(=N)N)NC(=O)[C@H](CC(C)C)NC(=O)CNC(C)=O)C(=O)N[C@@H](CCCCN)C(=O)N[C@@H](CCCCNC(=N)N)C(N)=O		5 % erythrocyte suspension	1 h, 37 °C		HC50	452 µM
CC(C)C[C@@H]1NC(=O)[C@H](CCCCN)NC(=O)CSC[C@@H]2NC(=O)[C@H](CC(C)C)NC(=O)[C@H](CC(C)C)NC(=O)[C@H](CCCCN)NC(=O)[C@H](CCCCNC(=O)[C@H](CCCCN)NC1=O)NC(=O)[C@H](CCCCN)NC(=O)[C@H](CC(C)C)NC(=O)[C@H](CCCCN)NC(=O)CSC[C@@H](C(=O)N[C@@H](CCCCN)C(N)=O)NC(=O)[C@H](CC(C)C)NC(=O)[C@H](CC(C)C)NC(=O)[C@H](CC(C)C)NC2=O			4 h, pH 7.4, room temperature		minimal haemolytic concentration	1000 µg/mL
CC[C@H](C)[C@H](NC(=O)[C@H](CCCCN)NC(=O)[C@H](CS)NC(=O)[C@H](CC(N)=O)NC(=O)[C@H](C)NC(=O)[C@H](CCCNC(=N)N)NC(=O)[C@H](CCCNC(=N)N)NC(=O)[C@H](CC(N)=O)NC(=O)[C@H](CCCNC(=N)N)NC(=O)[C@@H](NC(=O)[C@H](CCCNC(=N)N)NC(=O)[C@H](CS)NC(=O)[C@H](CO)NC(=O)[C@@H](NC(=O)[C@H](CCC(N)=O)NC(=O)[C@H](CS)NC(=O)[C@H](CCCCN)NC(=O)[C@@H](N)CCCNC(=N)N)[C@@H](C)CC)[C@@H](C)CC)C(=O)N[C@@H](CO)C(=O)N[C@@H](CS)C(=O)N[C@@H](CC(N)=O)C(=O)O			128 µg/mL, 3 h, 37 °C	baseline: Triton X-100	hemolysis	1.6%
N=C(N)NCCC[C@H](NC(=O)[C@H](CCCNC(=N)N)NC(=O)[C@@H]1CCCN1C(=O)[C@H](CCCNC(=N)N)NC(=O)[C@H](CCCNC(=N)N)NC(=O)[C@H](CCCNC(=N)N)NC(=O)[C@H](Cc1c[nH]c2ccccc12)NC(=O)[C@H](CCCNC(=N)N)NC(=O)[C@H](CCCNC(=N)N)NC(=O)[C@H](CCCNC(=N)N)NC(=O)[C@H](CCCNC(=N)N)NC(=O)[C@H](CCCNC(=N)N)NC(=O)[C@H](Cc1c[nH]c2ccccc12)NC(=O)[C@H](CCCNC(=N)N)NC(=O)[C@H](CCCNC(=N)N)NC(=O)[C@H](Cc1ccc(O)cc1)NC(=O)[C@H](CCCNC(=N)N)NC(=O)[C@H](CCCNC(=N)N)NC(=O)[C@H](CCCNC(=N)N)NC(=O)[C@@H](N)Cc1c[nH]c2ccccc12)C(N)=O			100 µM, 24 h, pH 7.4, 37 °C, 0.25% v/v erythrocytes		maximum haemolysis	61.8 ± 2%
CC[C@H](C)[C@H](NC(=O)[C@H](C)NC(=O)[C@H](CCCCN)NC(=O)[C@H](CC(C)C)NC(=O)[C@@H](N)Cc1ccccc1)C(=O)N[C@@H](CCCCN)C(=O)N[C@@H](CCCCN)C(=O)N[C@@H](Cc1ccccc1)C(=O)NCC(=O)N[C@@H](CCCCN)C(=O)N[C@@H](CCC(=O)O)C(=O)N[C@@H](Cc1ccccc1)C(=O)N[C@@H](CCCCN)C(=O)N[C@@H](CCCCN)C(=O)N[C@H](C(=O)NCC(=O)N[C@@H](C)C(=O)N[C@@H](CCCCN)C(=O)N[C@@H](CC(C)C)C(=O)N[C@@H](CCCCN)C(=O)O)[C@@H](C)CC		human blood			HC50	> 128 mg/L
CC[C@H](C)[C@H](NC(=O)[C@H](CCCN)NC(=O)[C@H](CC(N)=O)NC(=O)[C@H](Cc1c[nH]c2ccccc12)NC(=O)[C@H](Cc1ccccc1)NC(=O)[C@H](CCCN)NC(=O)[C@H](CCCNC(=N)N)NC(=O)[C@H](CC(C)C)NC(=O)[C@H](Cc1c[nH]c2ccccc12)NC(=O)[C@H](CCCN)NC(=O)[C@H](CCCNC(=N)N)NC(=O)[C@H](CC(C)C)NC(=O)CNC(C)=O)C(=O)N[C@@H](CCCN)C(=O)N[C@@H](CCCNC(=N)N)C(N)=O		5 % erythrocyte suspension	1 h, 37 °C		HC50	184 µM
CC[C@H](C)[C@H](NC(=O)[C@H](CCCCN)NC(=O)[C@H](CCCCN)NC(=O)[C@H](Cc1ccccc1)NC(=O)[C@H](CC(C)C)NC(=O)[C@H](CCCCN)NC(=O)[C@H](Cc1c[nH]c2ccccc12)NC(=O)[C@@H](CCCCN)NC(C)=O)C(=O)NCC(=O)N[C@@H](C)C(=O)N[C@H](C(=O)N[C@@H](CC(C)C)C(=O)N[C@H](CCCCN)C(=O)N[C@H](C(=O)N[C@@H](CC(C)C)C(N)=O)C(C)C)C(C)C			64 µM, 1 h, 37 °C	baseline: Triton X-100	hemolysis	~25%

For quick reference, copied from above:
SMILES	test	test system	setting	how to read	quantity	value
CC[C@H](C)[C@H](NC(=O)[C@H](CCCCN)NC(=O)[C@H](CC(N)=O)NC(=O)[C@H](CC(C)C)NC(=O)[C@H](Cc1ccccc1)NC(=O)[C@H](CCCCN)NC(=O)[C@H](CCCCNC(=N)N)NC(=O)[C@H](CC(C)C)NC(=O)[C@H](CC(C)C)NC(=O)[C@H](CCCCN)NC(=O)[C@H](CCCCNC(=N)N)NC(=O)[C@H](CC(C)C)NC(=O)CNC(C)=O)C(=O)N[C@@H](CCCCN)C(=O)N[C@@H](CCCCNC(=N)N)C(N)=O		5 % erythrocyte suspension	1 h, 37 °C		HC50	452 µM
CC(C)C[C@@H]1NC(=O)[C@H](CCCCN)NC(=O)CSC[C@@H]2NC(=O)[C@H](CC(C)C)NC(=O)[C@H](CC(C)C)NC(=O)[C@H](CCCCN)NC(=O)[C@H](CCCCNC(=O)[C@H](CCCCN)NC1=O)NC(=O)[C@H](CCCCN)NC(=O)[C@H](CC(C)C)NC(=O)[C@H](CCCCN)NC(=O)CSC[C@@H](C(=O)N[C@@H](CCCCN)C(N)=O)NC(=O)[C@H](CC(C)C)NC(=O)[C@H](CC(C)C)NC(=O)[C@H](CC(C)C)NC2=O			4 h, pH 7.4, room temperature		minimal haemolytic concentration	1000 µg/mL
